{"data": "Results from different studies", "note": "Parts stem from different laboratories: compare values within a part only. Substitutions count along the parent as printed."}
{"data": "Series 1", "target": "RNA binding protein fox-1 homolog 2, RRM domain, GST-SBP tag (RBFOX2, Homo sapiens, UniProt O43251-10, residues 100-194)", "method": "RNA Bind-n-Seq", "molecule type": "RNA", "matrix": "in vitro", "tested at": "365 nM", "notes": "natural RNA segment, single round, ends assumed", "baseline": "no-protein control", "direction": "higher = stronger binding", "constant ends, left off below": "GGGAGUUCUACAGUCCGACGAUC … UGGAAUUCUCGGGUGCCAA", "Residues (chain)": "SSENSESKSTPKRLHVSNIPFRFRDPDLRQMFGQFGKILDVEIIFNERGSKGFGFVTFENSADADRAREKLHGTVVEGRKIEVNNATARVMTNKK"}
{"Strand": "AGCCCCCCACCUUGUCACCCUCAGGGCUUCCCCUUCUGUCCUCAUUCUUAGAGACUGCUUCUCCCAAACAUAACGCGUUAGCCAUGAAGGAGUCGGAGCCCUGGGUCCGA", "RBNS enrichment (R)": 0.51}
{"Strand": "GAAGAAAAAGCUCCACUAAAGAUGAAUUUGGUAGCUUCAUUUGAGCAGAGUCUAUGAUUCCUACUCUUCUACUUCUUGUACUGAUAUAAGGGUUUGUUUUGUUUUGUUUU", "RBNS enrichment (R)": 2.37}
{"Strand": "UCCUGGUUUUUGAAGAGCCUGUUAAGUACACUUGGCUAUUUCCUCCUUGGAGUCCUGUUCUUGCUCACGCCUUGUGGCUAUUUUGCCCUCAGAGUGCCCUGUAUCCUACA", "RBNS enrichment (R)": 0.814}
{"Strand": "CUCCUGGAAGACAAGUGCCUUCUCCCUCCAUGGAUCUGUGAUCUUCCCAGCUCUGCAUCAACACAGCAGCCUGCAGAUAACACUUGGGGGGACCUCAGCCUCUAUUCGCA", "RBNS enrichment (R)": 1.15}
{"Strand": "ACAGUGUCAUAUACAGAUACUUCCGCAGGUCCUUAGAGUUCAAAGGGUUUUAAUCCAGGACAUAAGCAGAAAUCGCUCUCUUUAGUGAAGGGAGCAGCUGAUUUUUUCAU", "RBNS enrichment (R)": 0.278}
{"Strand": "CUGCAGCCUGGAGGUGUCCAAGGAUUCCCGUACAGUGACUGUGUCUCACCGCCCACAACCCUAUCGCUGGAGCUGUGAGAGGUUUUCUACCAGCCAGGUCUUAUGUUCCC", "RBNS enrichment (R)": 0.382}
{"Strand": "CGGGAAGCUUCUUGUGUCUGGAAGCUUCUUGUGUCUCCACGUUUCAAUUUUGUUUUGUUUUACCACUUUCAUUUUUAAACGUUUUCCAGUAUCCCCCCCAAAAUUUUAGA", "RBNS enrichment (R)": 0.599}
{"Strand": "CAUUACUUCCUUUUAUUUUGCUCUUUAAAUAAUAAAAUUCAAGAAGCAUAUUCUAUGUGGAAUAGAUCUGUUUUUCCAUCUGUGUCCCAGAUUGUGACCCUAGACUUUCA", "RBNS enrichment (R)": 0.309}
{"data": "Series 2", "target": "Sal-like protein 4, full length isoform B (SALL4, Homo sapiens, UniProt Q9UJQ4-2, residues 1-616)", "method": "universal PBM", "molecule type": "double-stranded DNA, one strand shown", "matrix": "in vitro", "tested at": "not given", "notes": "8-mer, flanks averaged, mean of replicates", "direction": "higher = stronger binding", "Construct (chain)": "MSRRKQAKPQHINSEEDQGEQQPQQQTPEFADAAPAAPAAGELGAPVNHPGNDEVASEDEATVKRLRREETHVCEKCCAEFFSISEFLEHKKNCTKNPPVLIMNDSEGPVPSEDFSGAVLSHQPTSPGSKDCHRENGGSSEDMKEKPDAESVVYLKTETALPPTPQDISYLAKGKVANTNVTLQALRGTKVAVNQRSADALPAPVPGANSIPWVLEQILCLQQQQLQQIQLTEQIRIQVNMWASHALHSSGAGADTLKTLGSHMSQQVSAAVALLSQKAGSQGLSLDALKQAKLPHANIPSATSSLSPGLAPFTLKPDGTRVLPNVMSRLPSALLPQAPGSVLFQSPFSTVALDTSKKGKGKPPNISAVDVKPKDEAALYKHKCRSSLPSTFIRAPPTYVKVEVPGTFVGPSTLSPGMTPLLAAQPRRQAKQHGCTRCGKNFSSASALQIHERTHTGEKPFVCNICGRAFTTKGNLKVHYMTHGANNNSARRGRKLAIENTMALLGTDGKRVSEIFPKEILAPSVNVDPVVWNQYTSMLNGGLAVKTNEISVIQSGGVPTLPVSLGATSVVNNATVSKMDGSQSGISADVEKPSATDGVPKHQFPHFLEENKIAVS"}
{"Strand": "AACCGGCA", "E-score": -0.3}
{"Strand": "CTGATTGC", "E-score": -0.0397}
{"Strand": "CTGAAGTC", "E-score": -0.0757}
{"Strand": "GGGTATCA", "E-score": 0.05}
{"Strand": "ATTGACAC", "E-score": 0.0741}
{"Strand": "GACCGTAA", "E-score": 0.0208}
{"Strand": "ATGGACCC", "E-score": -0.14}
{"Strand": "TCCCTGCA", "E-score": -0.192}
{"Strand": "GATCGAAC", "E-score": -0.133}
{"Strand": "GGGATGTA", "E-score": 0.0893}
{"Strand": "CCACACTC", "E-score": -0.0597}
{"Strand": "CCCAGTAA", "E-score": 0.0344}
{"Strand": "ACACTGCA", "E-score": -0.186}
{"Strand": "AAATAAAC", "E-score": 0.312}
{"Strand": "CCTTTTTA", "E-score": 0.153}
{"Strand": "CTCGTCCA", "E-score": -0.0813}
{"Strand": "TCTAATAA", "E-score": 0.349}
{"Strand": "GGGGGTCA", "E-score": -0.224}
{"Strand": "CAGGGAGA", "E-score": -0.311}
{"Strand": "ATCGGCCC", "E-score": -0.226}
{"Strand": "AGCGGCTC", "E-score": -0.33}
{"Strand": "TACGAGTA", "E-score": 0.151}
{"Strand": "ACGGTCTA", "E-score": 0.0306}
{"data": "Series 3", "target": "Histone acetyltransferase KAT6A, both winged helices, GST fusion (KAT6A, Homo sapiens, UniProt Q92794, residues 1-181)", "method": "protein binding microarray", "molecule type": "double-stranded DNA, one strand shown", "matrix": "in vitro", "tested at": "not given", "notes": "8-mer, flanks averaged, mean of 2 arrays, mostly near background", "baseline": "not given", "direction": "higher = stronger binding", "Target sequence (chain)": "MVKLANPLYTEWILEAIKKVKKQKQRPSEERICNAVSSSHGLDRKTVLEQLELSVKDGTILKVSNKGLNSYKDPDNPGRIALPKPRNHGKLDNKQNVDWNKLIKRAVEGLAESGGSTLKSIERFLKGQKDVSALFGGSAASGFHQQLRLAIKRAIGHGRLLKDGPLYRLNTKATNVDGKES"}
{"Strand": "AAAGGTAG", "E-score": -0.111}
{"Strand": "CTCCTACA", "E-score": -0.182}
{"Strand": "AGACCCTG", "E-score": -0.205}
{"Strand": "GAAAATAC", "E-score": 0.055}
{"Strand": "AGGCGCAA", "E-score": 0.144}
{"Strand": "ATGCGATG", "E-score": 0.0959}
{"Strand": "ACAAGCTA", "E-score": -0.257}
{"Strand": "GGCACACA", "E-score": -0.056}
{"Strand": "TACCGTAA", "E-score": 0.155}
{"Strand": "CATGGGGA", "E-score": -0.115}
{"Strand": "ATAATCAG", "E-score": -0.0278}
{"Strand": "ACTTAGGG", "E-score": -0.206}
{"Strand": "ACTTGCAA", "E-score": -0.0176}
{"Strand": "AGGGGGCG", "E-score": -0.015}
{"Strand": "AACTTAAA", "E-score": -0.0936}
{"Strand": "ATAACAGC", "E-score": 0.0223}
{"Strand": "AACTGGGT", "E-score": -0.269}
{"data": "Series 4", "target": "ABI1, truncated, D143A, DHFR fusion (Arabidopsis thaliana)", "method": "DHFR PCA, deep sequencing", "matrix": "yeast", "notes": "methotrexate growth selection, single substitutions", "with": "(+)-ABA 1.4 µM", "baseline": "wild-type fitted maximum", "direction": "higher = stronger binding", "parent": "PYL1, truncated, DHFR fusion (Arabidopsis thaliana); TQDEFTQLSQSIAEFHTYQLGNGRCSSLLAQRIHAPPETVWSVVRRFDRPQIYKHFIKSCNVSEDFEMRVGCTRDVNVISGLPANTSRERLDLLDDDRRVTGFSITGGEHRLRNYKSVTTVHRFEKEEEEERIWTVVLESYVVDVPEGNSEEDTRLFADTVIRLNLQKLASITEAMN; partner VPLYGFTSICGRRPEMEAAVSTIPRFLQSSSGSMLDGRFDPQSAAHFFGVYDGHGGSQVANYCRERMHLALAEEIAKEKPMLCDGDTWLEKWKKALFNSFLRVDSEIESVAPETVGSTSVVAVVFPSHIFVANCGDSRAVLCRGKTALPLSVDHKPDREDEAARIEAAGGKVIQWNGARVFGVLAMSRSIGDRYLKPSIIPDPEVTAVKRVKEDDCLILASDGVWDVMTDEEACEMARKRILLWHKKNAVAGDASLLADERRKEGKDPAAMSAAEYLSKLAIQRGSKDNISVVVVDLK"}
{"Change": "L112E", "relative binding score [%]": -3}
{"Change": "F103P", "relative binding score [%]": -5.74}
{"Change": "S27N", "relative binding score [%]": 50.7}
{"Change": "D75V", "relative binding score [%]": 80.4}
{"Change": "N114W", "relative binding score [%]": 4.35}
{"Change": "R99C", "relative binding score [%]": 39.3}
{"Change": "Q7A", "relative binding score [%]": 72}
{"Change": "A158S", "relative binding score [%]": -9.79}
{"Change": "E128A", "relative binding score [%]": 67.5}
{"Change": "S104D", "relative binding score [%]": -3.99}
{"Change": "R49Y", "relative binding score [%]": 19.9}
{"Change": "V44G", "relative binding score [%]": -13.6}
{"Change": "V121L", "relative binding score [%]": 21.2}
{"Change": "P50C", "relative binding score [%]": -9.19}
{"Change": "I79A", "relative binding score [%]": 32.1}
{"data": "Series 5", "target": "CCNA1, cyclin fold, Cln2 fusion (human)", "method": "yeast growth competition, sequencing", "matrix": "yeast", "notes": "weak parent motif", "baseline": "not given", "direction": "higher = stronger binding", "parent": "CDC6 docking peptide (human); TLKGRRLVFDNQL; partner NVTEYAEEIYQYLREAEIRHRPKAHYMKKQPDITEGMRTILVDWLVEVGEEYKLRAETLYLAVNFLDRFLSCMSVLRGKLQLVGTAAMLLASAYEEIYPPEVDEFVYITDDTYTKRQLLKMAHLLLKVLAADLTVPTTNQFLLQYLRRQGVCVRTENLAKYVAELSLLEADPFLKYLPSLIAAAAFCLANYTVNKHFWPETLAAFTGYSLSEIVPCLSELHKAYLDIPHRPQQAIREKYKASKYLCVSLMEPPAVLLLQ"}
{"Change": "G4L", "normalised enrichment score": -0.115}
{"Change": "R6D", "normalised enrichment score": 0.0823}
{"Change": "D10W", "normalised enrichment score": -0.026}
{"Change": "Q12P", "normalised enrichment score": 0.0734}
{"Change": "V8H", "normalised enrichment score": 0.577}
{"Change": "L13W", "normalised enrichment score": 0.872}
{"Change": "Q12M", "normalised enrichment score": 0.0987}
{"Change": "L2D", "normalised enrichment score": -0.0604}
{"Change": "L7W", "normalised enrichment score": 0.463}
{"Change": "T1S", "normalised enrichment score": 0.184}
{"Change": "K3R", "normalised enrichment score": 0.294}
{"Change": "L2Q", "normalised enrichment score": 0.14}
{"Change": "D10R", "normalised enrichment score": 0.222}
{"Change": "G4Y", "normalised enrichment score": 0.0758}
{"Change": "T1A", "normalised enrichment score": 0.421}
{"Change": "N11R", "normalised enrichment score": 0.487}
{"note": "For quick reference, copied from above (series 1):"}
{"Strand": "AGCCCCCCACCUUGUCACCCUCAGGGCUUCCCCUUCUGUCCUCAUUCUUAGAGACUGCUUCUCCCAAACAUAACGCGUUAGCCAUGAAGGAGUCGGAGCCCUGGGUCCGA", "RBNS enrichment (R)": 0.51}
{"Strand": "GAAGAAAAAGCUCCACUAAAGAUGAAUUUGGUAGCUUCAUUUGAGCAGAGUCUAUGAUUCCUACUCUUCUACUUCUUGUACUGAUAUAAGGGUUUGUUUUGUUUUGUUUU", "RBNS enrichment (R)": 2.37}
{"Strand": "UCCUGGUUUUUGAAGAGCCUGUUAAGUACACUUGGCUAUUUCCUCCUUGGAGUCCUGUUCUUGCUCACGCCUUGUGGCUAUUUUGCCCUCAGAGUGCCCUGUAUCCUACA", "RBNS enrichment (R)": 0.814}
{"Strand": "CUCCUGGAAGACAAGUGCCUUCUCCCUCCAUGGAUCUGUGAUCUUCCCAGCUCUGCAUCAACACAGCAGCCUGCAGAUAACACUUGGGGGGACCUCAGCCUCUAUUCGCA", "RBNS enrichment (R)": 1.15}
{"Strand": "ACAGUGUCAUAUACAGAUACUUCCGCAGGUCCUUAGAGUUCAAAGGGUUUUAAUCCAGGACAUAAGCAGAAAUCGCUCUCUUUAGUGAAGGGAGCAGCUGAUUUUUUCAU", "RBNS enrichment (R)": 0.278}
{"Strand": "CUGCAGCCUGGAGGUGUCCAAGGAUUCCCGUACAGUGACUGUGUCUCACCGCCCACAACCCUAUCGCUGGAGCUGUGAGAGGUUUUCUACCAGCCAGGUCUUAUGUUCCC", "RBNS enrichment (R)": 0.382}
{"Strand": "CGGGAAGCUUCUUGUGUCUGGAAGCUUCUUGUGUCUCCACGUUUCAAUUUUGUUUUGUUUUACCACUUUCAUUUUUAAACGUUUUCCAGUAUCCCCCCCAAAAUUUUAGA", "RBNS enrichment (R)": 0.599}
{"Strand": "CAUUACUUCCUUUUAUUUUGCUCUUUAAAUAAUAAAAUUCAAGAAGCAUAUUCUAUGUGGAAUAGAUCUGUUUUUCCAUCUGUGUCCCAGAUUGUGACCCUAGACUUUCA", "RBNS enrichment (R)": 0.309}
